{"data": "Experimental data collected from several papers", "cell line": "HCT-116", "read-out": "cell growth or viability", "note": "Lines come from different studies, so protocols differ."}
{"Structure (SMILES)": "COc1ccc(NC(=O)c2c(Nc3ccccc3)sc(C#N)c2NC(=O)CNc2ccc(O)cc2)cc1", "technique": "SRB", "tested at": "0.1 µM", "time": "48 h", "measurement": "viability", "value": "87.9%"}
{"Structure (SMILES)": "COc1cccc2c1C(=O)c1c(O)c3c(c(O)c1C2=O)C[C@@](O)(C(=O)CO)C[C@@H]3O[C@H]1C[C@H](N)[C@H](O)[C@H](C)O1", "technique": "WST-1", "time": "72 h", "measurement": "IC50", "value": "0.05 µM"}
{"Structure (SMILES)": "NCC(=O)Nc1ccccc1/N=c1\\cc(-c2ccc3c(c2)OCCO3)oc2cc(F)ccc12", "technique": "CCK-8", "tested at": "1 µM", "measurement": "inhibition", "value": "4.37%"}
{"Structure (SMILES)": "CC(=NNC(=O)COc1ccc2c(C)c(Cc3ccccc3)c(=O)oc2c1C)c1ccc(Br)cc1", "technique": "MTT", "tested at": "1.6 µg/mL", "measurement": "viability", "value": "61.7%"}
{"Structure (SMILES)": "NCCC(=O)Nc1ccccc1/N=c1\\cc(-c2ccc3nc(N)oc3c2)oc2ccccc12", "technique": "CCK-8", "tested at": "1 µM", "measurement": "inhibition", "value": "78.5%"}
{"Structure (SMILES)": "NC(=O)NOCCCCCCCCCC[P+](c1ccccc1)(c1ccccc1)c1ccccc1", "technique": "imaging", "measurement": "IC50", "value": "8.5 µM"}
{"Structure (SMILES)": "COc1ccc2/c(=N/c3ccccc3NC(=O)[C@@H](N)C(C)(C)C)cc(-c3ccc4c(c3)OCCO4)oc2c1", "technique": "CCK-8", "tested at": "1 µM", "measurement": "inhibition", "value": "12.3%"}
{"Structure (SMILES)": "NC(=O)NOCCCCCCCCCCCCCCCC[P+](c1ccccc1)(c1ccccc1)c1ccccc1", "technique": "imaging", "measurement": "IC50", "value": "0.5 µM"}
{"Structure (SMILES)": "COc1ccc(NC(=O)c2c(Nc3ccccc3)sc(C#N)c2NC(=O)CNc2ccc(Cl)cc2)cc1", "technique": "SRB", "tested at": "10 nM", "time": "48 h", "measurement": "viability", "value": "85.2%"}
{"note": "Some of these lines once more:"}
{"Structure (SMILES)": "NC(=O)NOCCCCCCCCCC[P+](c1ccccc1)(c1ccccc1)c1ccccc1", "technique": "imaging", "measurement": "IC50", "value": "8.5 µM"}
